# Published values of several laboratories.
Structure (SMILES),system,conditions,scale,endpoint,result
CC1(C)CC[C@]2(NC(=O)C(C)(F)F)CC[C@]3(C)[C@H](C(=O)C=C4[C@@]5(C)C=C(C#N)C(=O)C(C)(C)[C@@H]5CC[C@]43C)[C@@H]2C1,human,"oral, 150 mg once daily",,incidence of generalized pruritus,0%
CO[C@H]1/C=C/O[C@@]2(C)Oc3c(C)c(O)c4c(O)c(c(/C=N/N5CCN(C)CC5)c(O)c4c3C2=O)NC(=O)/C(C)=C\C=C\[C@H](C)[C@H](O)[C@@H](C)[C@@H](O)[C@@H](C)[C@H](OC(C)=O)[C@@H]1C,healthy human volunteers,"oral, 600 mg, itraconazole cohort, together with: gepotidacin 1500 mg",,incidence of ALT increased,0%
CNCc1ccc(-c2[nH]c3cc(F)cc4c3c2CCNC4=O)cc1,human patients,"oral, dose not given, all grades, all doses",,incidence of anaemia (haemoglobin decreased),30.4%
CCC(C)n1ncn(-c2ccc(N3CCN(c4ccc(OCC5COC(Cn6cncn6)(c6ccc(Cl)cc6Cl)O5)cc4)CC3)cc2)c1=O (centres unmarked),healthy human volunteers,"oral, 200 mg, compound alone cohort",,incidence of nasal congestion,0%
CC[C@H](C)[C@H](NC(=O)[C@H](Cc1ccccc1)NC(=O)[C@H](CCC(=O)O)NC(=O)[C@H](CCCCNC(=O)COCCOCCNC(=O)COCCOCCNC(=O)CC[C@H](NC(=O)CCCCCCCCCCCCCCCCC(=O)O)C(=O)O)NC(=O)[C@H](C)NC(=O)[C@H](C)NC(=O)[C@H](CCC(N)=O)NC(=O)CNC(=O)[C@H](CCC(=O)O)NC(=O)[C@H](CC(C)C)NC(=O)[C@H](Cc1ccc(O)cc1)NC(=O)[C@H](CO)NC(=O)[C@H](CO)NC(=O)[C@@H](NC(=O)[C@H](CC(=O)O)NC(=O)[C@H](CO)NC(=O)[C@@H](NC(=O)[C@H](Cc1ccccc1)NC(=O)[C@@H](NC(=O)CNC(=O)[C@H](CCC(=O)O)NC(=O)C(C)(C)NC(=O)[C@@H](N)Cc1cnc[nH]1)[C@@H](C)O)[C@@H](C)O)C(C)C)C(=O)N[C@@H](C)C(=O)N[C@@H](Cc1c[nH]c2ccccc12)C(=O)N[C@@H](CC(C)C)C(=O)N[C@H](C(=O)N[C@@H](CCCNC(=N)N)C(=O)NCC(=O)N[C@@H](CCCNC(=N)N)C(=O)NCC(=O)O)C(C)C,"human, type 2 diabetes","dose not given, decreased appetite, during treatment",relative to: subjects,incidence of adverse events,26.7%
CC(C)n1c(Nc2cccnc2)nc2cnc(Nc3ccc(N4CCN(C)CC4)cc3)nc21,healthy male humans,"oral, dose not given, drug interaction study, all arms",,incidence of ALT increased TEAE,11.9%
C[C@@H](Oc1ccc(S(C)(=O)=O)cc1C(=O)N1C[C@@H]2C[C@]2(c2cc(C(F)(F)F)on2)C1)C(F)(F)F,human,"oral, 25 mg",,incidence of Pollakiuria,16.7%
Cn1cnc2ccc(Nc3c(F)ccc(NS(=O)(=O)N4CC(F)C4)c3Cl)c(Cl)c2c1=O,human,"dose not given, combination therapy, first-in-human",relative to: participants,incidence of blurred vision,4%

# Excerpt of the above:
Structure (SMILES),system,conditions,scale,endpoint,result
CC[C@H](C)[C@H](NC(=O)[C@H](Cc1ccccc1)NC(=O)[C@H](CCC(=O)O)NC(=O)[C@H](CCCCNC(=O)COCCOCCNC(=O)COCCOCCNC(=O)CC[C@H](NC(=O)CCCCCCCCCCCCCCCCC(=O)O)C(=O)O)NC(=O)[C@H](C)NC(=O)[C@H](C)NC(=O)[C@H](CCC(N)=O)NC(=O)CNC(=O)[C@H](CCC(=O)O)NC(=O)[C@H](CC(C)C)NC(=O)[C@H](Cc1ccc(O)cc1)NC(=O)[C@H](CO)NC(=O)[C@H](CO)NC(=O)[C@@H](NC(=O)[C@H](CC(=O)O)NC(=O)[C@H](CO)NC(=O)[C@@H](NC(=O)[C@H](Cc1ccccc1)NC(=O)[C@@H](NC(=O)CNC(=O)[C@H](CCC(=O)O)NC(=O)C(C)(C)NC(=O)[C@@H](N)Cc1cnc[nH]1)[C@@H](C)O)[C@@H](C)O)C(C)C)C(=O)N[C@@H](C)C(=O)N[C@@H](Cc1c[nH]c2ccccc12)C(=O)N[C@@H](CC(C)C)C(=O)N[C@H](C(=O)N[C@@H](CCCNC(=N)N)C(=O)NCC(=O)N[C@@H](CCCNC(=N)N)C(=O)NCC(=O)O)C(C)C,"human, type 2 diabetes","dose not given, decreased appetite, during treatment",relative to: subjects,incidence of adverse events,26.7%
